Values quoted from earlier work, collected from citations in different studies.
Each numbered part shows a few of the values that one paper quotes. ± gives the spread as reported.
Sequence of UniProt P03372 (whole entry, looked up): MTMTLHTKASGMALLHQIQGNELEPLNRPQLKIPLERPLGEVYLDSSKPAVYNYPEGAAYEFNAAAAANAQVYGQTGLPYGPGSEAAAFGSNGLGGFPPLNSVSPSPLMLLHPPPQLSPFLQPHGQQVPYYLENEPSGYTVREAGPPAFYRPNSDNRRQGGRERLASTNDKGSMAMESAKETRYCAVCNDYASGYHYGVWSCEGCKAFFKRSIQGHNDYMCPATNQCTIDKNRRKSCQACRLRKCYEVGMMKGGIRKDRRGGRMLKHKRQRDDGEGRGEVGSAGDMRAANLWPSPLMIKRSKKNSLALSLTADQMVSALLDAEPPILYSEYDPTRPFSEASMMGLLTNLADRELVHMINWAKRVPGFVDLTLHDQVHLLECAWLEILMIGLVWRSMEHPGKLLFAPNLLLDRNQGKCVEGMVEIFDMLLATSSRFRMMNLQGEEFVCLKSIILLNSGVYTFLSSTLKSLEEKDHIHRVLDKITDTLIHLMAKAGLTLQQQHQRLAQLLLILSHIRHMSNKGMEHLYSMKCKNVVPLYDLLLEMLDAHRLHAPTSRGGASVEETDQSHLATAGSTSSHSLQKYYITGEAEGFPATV
Sequence of UniProt O42275 (whole entry, looked up): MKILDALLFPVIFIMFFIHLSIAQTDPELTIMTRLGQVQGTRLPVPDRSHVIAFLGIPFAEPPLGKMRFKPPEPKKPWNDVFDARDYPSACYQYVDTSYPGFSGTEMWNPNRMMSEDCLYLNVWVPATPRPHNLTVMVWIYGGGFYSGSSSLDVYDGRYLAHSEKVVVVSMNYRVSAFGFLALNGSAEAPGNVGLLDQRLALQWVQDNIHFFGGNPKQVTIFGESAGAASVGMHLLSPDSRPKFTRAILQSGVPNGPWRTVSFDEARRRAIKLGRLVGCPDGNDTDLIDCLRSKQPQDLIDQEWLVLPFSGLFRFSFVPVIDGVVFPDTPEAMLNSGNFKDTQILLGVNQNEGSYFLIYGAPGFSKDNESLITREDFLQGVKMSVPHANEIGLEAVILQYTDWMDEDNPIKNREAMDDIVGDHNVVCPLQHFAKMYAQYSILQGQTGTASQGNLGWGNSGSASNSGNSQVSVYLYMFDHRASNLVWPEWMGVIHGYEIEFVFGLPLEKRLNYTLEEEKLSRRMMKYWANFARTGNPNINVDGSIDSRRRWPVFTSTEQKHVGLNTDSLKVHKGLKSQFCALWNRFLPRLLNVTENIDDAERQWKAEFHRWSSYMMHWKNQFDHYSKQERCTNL

Block 1 — read-out: peptide-MHC binding; form: peptide
Target: HLA class I histocompatibility antigen, C alpha chain, allele C*04:01 (Homo sapiens, UniProt P10321)
| Sequence | IC50 [µM] |
| --- | --- |
| YTMELCGAM | 20 |
| WQLTSIWPI | > 5 |
| RARRLRRAL | > 5 |
| RQHPGLFPF | > 5 |
| LEYFQFVKKLL | > 20 |
| FYYNAFHW | > 20 |
| HYMLKHLVW | > 5 |
| AQIGIFAPV | > 5 |
| RTLNLFRYK | > 5 |
| YTYGAGSYF | 20 |
| FQILHDRFF | > 20 |
| YSLEYFQFVKK | > 20 |
| YARNFLIPF | > 5 |

Single results of other studies
| SMILES | target or system | test | test system | setting | quantity | result |
| --- | --- | --- | --- | --- | --- | --- |
| O=C(O)C(F)(F)C(F)(F)C(F)(F)C(F)(F)C(F)(F)C(F)(F)C(F)(F)C(F)(F)C(F)(F)F | Estrogen receptor (ESR1, Homo sapiens, UniProt P03372) | antagonist, beta-lactamase reporter |  | Tox21 screen | IC50 | 17.4 µM |
| COc1cc2oc(-c3ccc(O)c(O)c3)cc(=O)c2c(O)c1O | hepatitis C virus | viral replication | genotype 2a JFH-1 |  | EC50 | 52 µM |
| O=C1[C@@H]2[C@H]3CC[C@H](C3)[C@@H]2C(=O)N1C[C@@H]1CCCC[C@H]1CN1CCN(c2nsc3ccccc23)CC1 | 5-HT2B receptor human | binding, radioligand binding |  | added: [3H]-LSD | Ki | 0.024 µM |
| NC1CCCCC1N.O=C([O-])C(=O)[O-].[Pt+2] (centres unmarked) |  | measured: total platinum | mice, plasma | intravenous, 8.34 mg Pt/kg | half-life alpha | 2.28 min |
| COc1ccc(C[C@H]2NC[C@H](O)[C@H]2OC(C)=O)cc1 | Trypanosoma brucei | parasite growth |  |  | IC50 | 0.1 µM |
| CN1COCN(Cc2cnc(Cl)s2)/C1=N\[N+](=O)[O-] |  |  | soil | 0.12 nominal, 0 days, Folsomia candida soil test | recovery | 75% |
| c1ccc2c(c1)ccc1c3ccccc3ccc21 |  | substrate | human liver microsomes |  | Vmax | 0.012 nmol/min/mg |
| O=C(Nc1ccc(OCCO)c(-c2ccc(F)cc2)c1)c1ccc(OCCO)c(-c2ccc(F)c(F)c2)c1 | human β-catenin/BCL9 interaction | inhibitor, AlphaScreen |  |  | Ki | 37 ± 2.7 µM |
| O=c1c(O)c(-c2ccc(O)c(O)c2)oc2cc(O)cc(O)c12 | Zika virus NS2B-NS3 protease | enzyme activity, inhibitor |  | pH 8.5, 20% glycerol | IC50 | 2.4 ± 0.2 µM |
| O=C(Nc1ccc(O[C@H]2CCNC2)c(-c2ccc(F)cc2)c1)c1ccc(O[C@H]2CCNC2)c(-c2ccc(F)c(F)c2)c1 | human β-catenin/BCL9 interaction | inhibitor, AlphaScreen |  |  | Ki | 2.1 ± 0.41 µM |
| CC(=O)c1c(O)c(C)c(O)c2c1OC1=CC(=O)C(C(C)=O)C(=O)C12C (centres unmarked) | ache (Electrophorus electricus, UniProt O42275) |  |  |  | Ki | 0.00016 µM |
| FC(F)(F)C(F)(F)C(F)(F)C(F)(F)CCI | CYP2C19 | inhibitor |  | Tox21 screening | IC50 | inactive |
| N[C@@H](CO)C(=O)O | Tsr chemoreceptor | binding, high affinity, FRET |  |  | EC50 | ~0.1 µM |

A few entries again (block 1):
| Sequence | IC50 [µM] |
| --- | --- |
| YTMELCGAM | 20 |
| YARNFLIPF | > 5 |
| AQIGIFAPV | > 5 |
